Assay results from different studies.
Parts stem from different laboratories: compare values within a part only.

Block 1
Target: Fragile X messenger ribonucleoprotein 1, C-terminal low-complexity region (Fmr1, Mus musculus, UniProt P35922)
Technique: RNA Bind-n-Seq
Molecule type: RNA
Matrix: in vitro
Tested at: 200 nM
Setting: whole 134-nt RNA, ends assumed
Added: 150 mM LiCl
Reference: input library
Reading: higher = stronger binding
All molecules: 7-deaza-guanosine replaces G
Constant ends, left off below: GGGAGUUCUACAGUCCGACGAUC … UGGAAUUCUCGGGUGUCAAGG
Sequence | log2 enrichment
GCUUAUGUAGACAUGAGGAAGAUUGGCAGUAGCCGGGGAAUGGUUUCUGCAUACCCUCGACAGCUAGAGUCAUUAAUCCGCUUAGCAGAA | 1.03
AAGUCCUGUGCUACACAUCGUAUGUACCGAAUCGGAAAAAAAGGUUUUUUUGGUGGAAAGUAUUAUGUUACGCCGUUCGGAUCUGCACUU | -3.13
UGGUGACCUACCUGGACGUCCGGAGCUGCCUUGGACACCUAGGCUACCUGGGCUACCCCACCCUCUGUGAGCAGGACCAGGCCCAUGCCA | 0.207
UGGCCCUGGUGGCAUGCGGGGAGGAAGAGGUGGCCUCAAGGAUCGUGGUGGUCCCGGUGGAAUGUUCAGAGGUGGCCGUGGUGGAGACAG | -0.247
CCUGUGCUACACAUCGUAUGUACCGAAUCGGGGUUUUUUUGGGUUUUUUUGGUUUUUUUGGAAAGUAUUAUGUUACGCCGUUCGGAUCUG | 0.902
AAGUCCUGUGCUACACAUCGUAUGUACCGAAUCAAAUUUAAACCCCCAAAUUUAAAAAAGUAUUAUGUUACGCCGUUCGGAUCUGCACUU | -0.563
CCUGUGCUACACAUCGUAUGUACCGAAUCGGGGUUUUUUUGGGGAGGGGUUUUUUUGGGGAAAGUAUUAUGUUACGCCGUUCGGAUCUGC | 0.357
CCUGUGCUACACAUCGUAUGUACCGAAUCGGGGAAAAAAAGGGGUUUUUGGGGUUUGGGGAAAGUAUUAUGUUACGCCGUUCGGAUCUGC | -1.88
UGGCCCUGGUGGCAUGCGGGGAGGAAGAGGAGGCCUCAUGGAUCGUGGUGGUCCCGGUGGAAUGUUCAGAGGUGGCCGUGGUGGAGACAG | -0.252
CAAGUCCUGUGCUACACAUCGUAUGUACCGAAUCGGCCCGGGGCCCGGCCCGGGGAAAGUAUUAUGUUACGCCGUUCGGAUCUGCACUUC | -0.668
GUCCUGUGCUACACAUCGUAUGUACCGAAUCGGGAAAAAAAGGGUUUGGGUUUUUGGGAAAGUAUUAUGUUACGCCGUUCGGAUCUGCAC | -1.98

Block 2
Target: RING finger protein unkempt homolog, zinc fingers 1-6, SBP tag (UNK, Homo sapiens, UniProt Q9C0B0, residues 30-357)
Sequence of UniProt Q9C0B0 (30-357, looked up): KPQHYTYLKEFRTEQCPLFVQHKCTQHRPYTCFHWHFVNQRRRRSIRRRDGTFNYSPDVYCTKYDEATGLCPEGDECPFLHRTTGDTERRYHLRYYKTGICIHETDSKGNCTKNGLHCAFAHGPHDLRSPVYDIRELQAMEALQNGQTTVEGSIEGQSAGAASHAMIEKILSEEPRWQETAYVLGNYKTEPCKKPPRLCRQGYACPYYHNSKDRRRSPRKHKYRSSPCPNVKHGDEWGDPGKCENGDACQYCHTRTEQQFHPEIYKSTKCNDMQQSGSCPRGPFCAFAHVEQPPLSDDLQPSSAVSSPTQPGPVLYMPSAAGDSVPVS
Technique: RNA Bind-n-Seq
Molecule type: RNA
Matrix: in vitro
Tested at: 100 nM
Setting: RNA with constant flanks, vertebrate orthologous sites, ends assumed
Reference: input RNA pool
Reading: higher = stronger binding
Constant ends, left off below: GGGAGUUCUACAGUCCGACGAUC … CAACAGAGGAUUGAGCAUCA
Sequence | bound/input enrichment [ratio]
CAACUCAAUGGUGGAGGGUUCAGAACUCAAAAAGGUCCGCUCCAACUCUAGAAUAUACCAUAGGUAUUUUUUACUAGAUGCUGACAUGCAGAGCUUGAGGUGGGAGCCAUCUAAGAAGGA | 0.288
CUGAAGCUUUGUGUUUGGCUGCACCUGCAUAAGCUGCUACAAAUAGAAUAAAGAAUUUCAUAGCCUGUAUCUAUCAUUUUAGAUGCAUGGAAAAAAUGGGCUUUGCACACAAUGGGUUUG | 2.02
AGCAACCCAAGGAUUCAGGACUGGUUUUACAAAUAUACCAAGUAGAUAUGGAACAAACAAUAGAAUUGGGCAACCAAGAUCAUAAUGUACUGUAAUUUAAUUUAUUUUUUGAAGAAUAUU | 0.537
UCCUGUCCUGACUUUUAAAAGGCCCUUAUAUUUCUCUUUUCUUUUUUUUUUUCUUUUACAGGAUAUGUAGUAUAUUAGCAGAAAGAUUUAAUUUGGGCAACUUUGAUUCUUAAAGCAUGU | 0.846
AUUUAGAAUGUUAAUAAAUUGCUCUGAGAUUCCUCAAGUCCAUUUUGUAAGAUCAGACCAUAGGUGGGUGUUGUUUCUUUUAAGUUUGUGUACUGUGUCCAAUGUUACAUUUUUAAAAGU | 3.25
UUUUGUGAGGGCUUGGGGGGUGGGGGGGAUGUAUGGAUGUGAUUAGCAGUUUUGACUGUUCAAAGGUUCCUCACUUUUCCCCCCGCUUUAAUUGGAUGCACUGACCUGGCCCAGGAAGAG | 0.238
AGCCGGACUAGAUAGGGGAAAAAAAAGCGUAAAAAUAUUACACAAUAUAUAUAUAUACAGGCAACAAAACUCAGCCAGCCGUCUGGAACGUUAGAGCUCUAAGCAGACACACGCGGCCCC | 0.54
GCAUACCCCAUCACUGUGAUAUUUAAAAUAUGCACAGUCCUAAUUCUUUCUAAAUGACCCUAUUGUUUUUCUAGCUGUAUCUUUGUAUCUCAUACUGUUAUUUAUCAGUUUUGUUCCCCA | 1.77
AUUACACUAAUACUGAAGUUAAAAUUAAAAGGAUAUCCAAGGUGAUGAUAAAAGUGUGUGUUGGUAGUUACUAAAAGAACUUUAGCUGUUAUUGCCUUGUAUUUCUAUCCCUUGUUUCAG | 0.367
UUCAGGCUCAACUGACUGUUUCACAGCAUUCCUUACACAGCUAUUUAACGAGUACAAGUGGAGUUAAUUUUCAGGAUACAUCCAGGCACUCGGCGUUGUCCUGCAGUCCGGUUGGAGAUG | 0.216
UUCAGGCACAGUUGUCCAGCACUCAGCAUUCUUUGCAAGGUUACCUAACCAGUGGAAGCGAAGUCGCUUUCCAGGAUCCGUCAAGGCAAUCAGCCAUGCCCUGCAGCCCAAUCGGAGACA | 0.368

Block 3
Target: Sal-like protein 4, full length isoform A (SALL4, Homo sapiens, UniProt Q9UJQ4, residues 1-1053)
Sequence of UniProt Q9UJQ4 (whole entry, looked up): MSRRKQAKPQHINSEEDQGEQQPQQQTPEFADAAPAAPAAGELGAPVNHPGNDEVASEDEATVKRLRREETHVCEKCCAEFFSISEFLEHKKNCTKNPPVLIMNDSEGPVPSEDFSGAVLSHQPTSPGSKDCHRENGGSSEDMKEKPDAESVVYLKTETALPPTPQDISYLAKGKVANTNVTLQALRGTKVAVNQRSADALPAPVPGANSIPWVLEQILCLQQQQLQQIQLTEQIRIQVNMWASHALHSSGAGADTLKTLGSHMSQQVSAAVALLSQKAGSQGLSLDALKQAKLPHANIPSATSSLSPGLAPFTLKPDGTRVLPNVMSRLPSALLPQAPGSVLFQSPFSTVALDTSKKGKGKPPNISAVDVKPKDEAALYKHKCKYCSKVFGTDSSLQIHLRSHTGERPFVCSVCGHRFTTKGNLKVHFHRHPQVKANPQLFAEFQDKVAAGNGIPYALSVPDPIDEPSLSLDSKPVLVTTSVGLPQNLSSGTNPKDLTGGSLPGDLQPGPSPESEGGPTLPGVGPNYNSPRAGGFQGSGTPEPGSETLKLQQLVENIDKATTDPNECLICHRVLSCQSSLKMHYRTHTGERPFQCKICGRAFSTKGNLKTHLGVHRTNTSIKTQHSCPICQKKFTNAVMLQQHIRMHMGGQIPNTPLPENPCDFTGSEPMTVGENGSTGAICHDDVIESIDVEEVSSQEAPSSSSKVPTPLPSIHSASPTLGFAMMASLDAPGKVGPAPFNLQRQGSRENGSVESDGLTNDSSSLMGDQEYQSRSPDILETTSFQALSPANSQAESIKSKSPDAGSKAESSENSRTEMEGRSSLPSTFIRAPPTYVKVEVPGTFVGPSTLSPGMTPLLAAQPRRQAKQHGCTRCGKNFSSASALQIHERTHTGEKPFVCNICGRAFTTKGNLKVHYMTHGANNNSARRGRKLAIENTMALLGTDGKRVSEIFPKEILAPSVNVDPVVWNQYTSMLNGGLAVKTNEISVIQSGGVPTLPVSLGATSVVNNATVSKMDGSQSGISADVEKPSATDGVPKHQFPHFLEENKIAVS
Technique: universal PBM
Molecule type: double-stranded DNA, one strand shown
Matrix: in vitro
Tested at: 600 nM
Setting: 8-mer, flanks averaged, mean of replicates
Reading: higher = stronger binding
Sequence | E-score
AATCACGA | 0.0402
CATTGTTC | 0.0259
GTCGGTCA | -0.00619
AATTAAGC | 0.221
CCTAGGGC | -0.274
AGAAAATC | 0.177
AACCCGGG | -0.302
AGTGAAAC | 0.0745
AGACTCTA | 0.0806
GGCACTGA | -0.104
CGCAATAG | 0.0227
AAGGTATG | 0.104
GAAGGTCC | -0.299
GCTGCTCA | -0.166
TCTGCTCA | -0.0479
AAGTGTAC | 0.0716
ATCTGTCA | 0.119
CCCTTACC | -0.0801
AGGTCTGG | -0.242
AAGGTGGG | -0.266
CAAATAAC | 0.31
GCCATGGA | -0.246
GCTGGCTA | -0.233

Block 4
Target: RNA binding protein fox-1 homolog 2, RRM domain, GST-SBP tag (RBFOX2, Homo sapiens, UniProt O43251-10, residues 100-194)
Technique: RNA Bind-n-Seq
Molecule type: RNA
Matrix: in vitro
Tested at: 365 nM
Setting: natural RNA segment, single round, ends assumed
Reference: no-protein control
Reading: higher = stronger binding
Constant ends, left off below: GGGAGUUCUACAGUCCGACGAUC … UGGAAUUCUCGGGUGCCAA
Residues (chain): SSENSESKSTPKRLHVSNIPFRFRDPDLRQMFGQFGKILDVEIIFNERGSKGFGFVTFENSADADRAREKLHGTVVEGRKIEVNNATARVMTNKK
Sequence | RBNS enrichment (R)
UUUUGUGUGUGUAAUGCAAAUUAGUUAAAACAAAUAGUUUUGGAGAAAGUUAAAACUAGCUUUAGAGUAAGGAUGAGAAACUUGAGUGUUUUUAAUUUAAAGAUAAAAGC | 1.36
UGUGGUAUUGGCUCUGGCCCAGCCUUCUCCCCUGUUACCCAUAAUUCUUGCCUCUUUCCAUAAUCCGUGGUUUCAGUUUGACUUUGUAUAUAAAGUUGGGGUUUUUUUUU | 0.461
UUCAGUAUCUGAGUACUGGAAGUGAAACAUGAGGAAUGCUUUAGUGUAAUGUGGGAGAACUUUUUUGUAAAUUUAAUGCAAUUGAAAAAGUUUUCAAAUUCAAUUAAGAU | 1.81
GUAGGAUCACACACACAGGUGCAAUCUUGACCACACUUACCUGCAAGAGGAGUAACCAGAGGACACACUUCCUUCCUUCUUUGGUGUCUGAGGAGUGUGAACUGUUGGGG | 0.483
GUUGGAGGCCUGAGGCCUCUUGGAACUCUUGCUAACCUGUUCAGAGCCAGGAAGGAGACUGCACAGUUUUGAAAGCACAGCCCGUCAGGUCCGGCUCUGCGUCUCCCUCU | 0.451
UUCAUGCUUUAUCAAUAGCCCAGGAUAUAUUUUAUUUUUAGAAUUUUGUGAAACAGACUUGUAUAUUCUAUUUUACAACUACAAAUGCCUCCAAAGUAUUGUACAAAUAA | 0.669
UUGACGUUGCCUUUUAAGCCUUUUACAUACACUGGUCAGUUCGGAAAAUUCUCAACAAUAAUGUUUGCCUUCUAGUUUAAGACAUGGUGUAUUUUAGAAAUUACCUGAAG | 0.66
UAACUGGUUGCACUACCCGUGAAGAAUUCAUGGGACAGCCACUGCUGAGUGACUAACAUGAUGCACAUAACCAAACGGGGCCAAUGGUACAAACUUCACUCAUCAUUUGA | 0.289
CUGCCUCUCACCUCCGAGCACUACAUUGUGGCUGUCCCCUGCCCGCCUGCCCGCCUUCUGUCCUGGAUCAGGAAGAUGGUAGCCUGCUGUUAGUAGCUUCACAGGGCUUU | 0.364
AUUAUUUUCUAUCAUACAGUUUUCAUUGGUUAUAUGAGUAUGUCUACCCAAUAAAUCACUGAAUUUAUGUUGCUGGCGUUUUGUUGGUGACUCUUCAUGGUAGGUACCAU | 0.4
UCAGUUUCAGCAACAAACAAACUUUGUUUGGGAAGCUAUGGAGGAGGACUUUUAGAUUUAGUGAAGAUGGUAGGGUGGAAAGACUUAAUUUCCUUGUUGAGAACAGGAAA | 0.658
GAAAAAAAUCCAACUUUAUUCCUAAGUUUUAAUUGUUAGAAAGUAUUUUCGGAGCCAGUGAUGCUCUUUAAAGGAGUUAUUUCUUCCAAAGAAGCAAGACGAGCCAGGUU | 0.387

Excerpt of the above (block 2):
Sequence | bound/input enrichment [ratio]
CUGAAGCUUUGUGUUUGGCUGCACCUGCAUAAGCUGCUACAAAUAGAAUAAAGAAUUUCAUAGCCUGUAUCUAUCAUUUUAGAUGCAUGGAAAAAAUGGGCUUUGCACACAAUGGGUUUG | 2.02
AGCAACCCAAGGAUUCAGGACUGGUUUUACAAAUAUACCAAGUAGAUAUGGAACAAACAAUAGAAUUGGGCAACCAAGAUCAUAAUGUACUGUAAUUUAAUUUAUUUUUUGAAGAAUAUU | 0.537
UCCUGUCCUGACUUUUAAAAGGCCCUUAUAUUUCUCUUUUCUUUUUUUUUUUCUUUUACAGGAUAUGUAGUAUAUUAGCAGAAAGAUUUAAUUUGGGCAACUUUGAUUCUUAAAGCAUGU | 0.846
AUUUAGAAUGUUAAUAAAUUGCUCUGAGAUUCCUCAAGUCCAUUUUGUAAGAUCAGACCAUAGGUGGGUGUUGUUUCUUUUAAGUUUGUGUACUGUGUCCAAUGUUACAUUUUUAAAAGU | 3.25
UUUUGUGAGGGCUUGGGGGGUGGGGGGGAUGUAUGGAUGUGAUUAGCAGUUUUGACUGUUCAAAGGUUCCUCACUUUUCCCCCCGCUUUAAUUGGAUGCACUGACCUGGCCCAGGAAGAG | 0.238
AGCCGGACUAGAUAGGGGAAAAAAAAGCGUAAAAAUAUUACACAAUAUAUAUAUAUACAGGCAACAAAACUCAGCCAGCCGUCUGGAACGUUAGAGCUCUAAGCAGACACACGCGGCCCC | 0.54
GCAUACCCCAUCACUGUGAUAUUUAAAAUAUGCACAGUCCUAAUUCUUUCUAAAUGACCCUAUUGUUUUUCUAGCUGUAUCUUUGUAUCUCAUACUGUUAUUUAUCAGUUUUGUUCCCCA | 1.77
AUUACACUAAUACUGAAGUUAAAAUUAAAAGGAUAUCCAAGGUGAUGAUAAAAGUGUGUGUUGGUAGUUACUAAAAGAACUUUAGCUGUUAUUGCCUUGUAUUUCUAUCCCUUGUUUCAG | 0.367
UUCAGGCUCAACUGACUGUUUCACAGCAUUCCUUACACAGCUAUUUAACGAGUACAAGUGGAGUUAAUUUUCAGGAUACAUCCAGGCACUCGGCGUUGUCCUGCAGUCCGGUUGGAGAUG | 0.216
UUCAGGCACAGUUGUCCAGCACUCAGCAUUCUUUGCAAGGUUACCUAACCAGUGGAAGCGAAGUCGCUUUCCAGGAUCCGUCAAGGCAAUCAGCCAUGCCCUGCAGCCCAAUCGGAGACA | 0.368
